Measured values collected from several papers.
Each numbered part is a random draw from the data of one study; scales do not carry over between parts.

Set 1
Target: Sal-like protein 4, full length isoform A (SALL4, Homo sapiens, UniProt Q9UJQ4, residues 1-1053)
UniProt Q9UJQ4, sequence (whole entry, looked up): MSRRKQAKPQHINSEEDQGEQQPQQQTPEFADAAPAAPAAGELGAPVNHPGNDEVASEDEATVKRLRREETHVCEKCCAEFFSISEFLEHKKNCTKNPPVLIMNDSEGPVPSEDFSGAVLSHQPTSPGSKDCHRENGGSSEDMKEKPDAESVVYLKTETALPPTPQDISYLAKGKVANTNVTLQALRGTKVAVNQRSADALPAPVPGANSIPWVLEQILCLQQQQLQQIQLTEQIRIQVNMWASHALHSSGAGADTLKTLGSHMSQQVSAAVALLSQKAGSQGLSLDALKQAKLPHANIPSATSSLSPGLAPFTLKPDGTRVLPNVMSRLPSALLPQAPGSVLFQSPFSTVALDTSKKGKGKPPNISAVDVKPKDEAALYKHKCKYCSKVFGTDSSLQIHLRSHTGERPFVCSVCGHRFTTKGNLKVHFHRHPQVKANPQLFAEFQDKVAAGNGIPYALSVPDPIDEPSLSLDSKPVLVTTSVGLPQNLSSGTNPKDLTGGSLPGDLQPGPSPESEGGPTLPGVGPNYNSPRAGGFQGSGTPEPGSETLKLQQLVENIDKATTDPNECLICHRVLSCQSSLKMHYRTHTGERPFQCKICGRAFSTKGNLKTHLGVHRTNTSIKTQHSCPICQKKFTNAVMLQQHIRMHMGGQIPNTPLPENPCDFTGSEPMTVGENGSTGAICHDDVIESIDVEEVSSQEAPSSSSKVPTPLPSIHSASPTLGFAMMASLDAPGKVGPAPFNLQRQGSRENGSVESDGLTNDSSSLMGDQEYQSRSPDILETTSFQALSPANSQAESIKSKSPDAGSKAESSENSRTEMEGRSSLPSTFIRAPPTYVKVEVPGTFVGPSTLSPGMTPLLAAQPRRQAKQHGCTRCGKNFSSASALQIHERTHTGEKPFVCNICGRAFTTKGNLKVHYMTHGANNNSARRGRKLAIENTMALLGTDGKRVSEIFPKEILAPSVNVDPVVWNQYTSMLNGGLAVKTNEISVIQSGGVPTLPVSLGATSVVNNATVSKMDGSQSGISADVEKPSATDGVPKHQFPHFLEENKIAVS
Technique: universal PBM
Molecule type: double-stranded DNA, one strand shown
Matrix: in vitro
Concentration: 600 nM
Setting: 8-mer, flanks averaged, mean of replicates
Reading: higher = stronger binding
Quantity: E-score
GGTGTCGA: -0.195
AGGGGTGG: -0.276
CATATCGC: 0.118
CTTGGCTC: -0.128
ACTCCACT: -0.0115
ATTTCGGA: 0.24
ATCTATTA: 0.323
ATTGAATG: 0.233

Set 2
Target: RNA binding protein fox-1 homolog 2, RRM domain, GST-SBP tag (RBFOX2, Homo sapiens, UniProt O43251-10, residues 100-194)
Technique: RNA Bind-n-Seq
Molecule type: RNA
Matrix: in vitro
Concentration: 365 nM
Setting: natural RNA segment, single round, ends assumed
Relative to: no-protein control
Reading: higher = stronger binding
Quantity: RBNS enrichment (R)
Residues (chain): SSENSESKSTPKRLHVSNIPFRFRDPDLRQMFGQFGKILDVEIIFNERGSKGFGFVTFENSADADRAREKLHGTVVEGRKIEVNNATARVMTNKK
GGGAGUUCUACAGUCCGACGAUCCCCUUCUUGCUAAUCCUUCUUCAGCUCUGAGGGUUGGAAUCAUAACUCACAUUCCUCAUUCCUAAGAAUUUGGAGCUAGCUGUUUGCCUUUGACUCCCUGACUUCAAGCCUGGAAUUCUCGGGUGCCAA: 0.346
GGGAGUUCUACAGUCCGACGAUCCAUUACUAUCCCUUGGGCUAACCAGCAAGAAGAUUGUACAUCACAGAACUGGAUGAGCCAAACAGCCACCAUCUUUACUCUUGACUAAAUGGACCUAUCAAGAAUAUUAAUGGAAUUCUCGGGUGCCAA: 0.385
GGGAGUUCUACAGUCCGACGAUCUCUUAAGCAGUGCUCCACUAACGGUCACUCAGGGACCACCUACCCAGAACAGACGGGGAAUUGAAAUUUUUUACUCCCUCUACCCACUCCAGACAGAAGCUCAGGGUGUGUGGAAUUCUCGGGUGCCAA: 0.261
GGGAGUUCUACAGUCCGACGAUCGCUUGUGGCCACUUGCCCAGCACAACUGUGUUUUGUGGGGCGUCUUUUAGGACUUAGCAGAGCUGAGAGCCCUUUGUUGCUCAAUGCUGUGAGCCUUAAGCAUGUGAAUCUGGAAUUCUCGGGUGCCAA: 2.89

Set 3
Target: Prothrombin, mature alpha-thrombin (F2, Homo sapiens, UniProt P00734)
Technique: aptamer microarray, sandwich
Molecule type: DNA with 2'F-ANA
Matrix: in vitro
Concentration: 200 nM
Setting: whole 15-mer aptamer, many near background
Added: Cy3 exosite-II aptamer, 400 nM
Reading: higher = stronger binding
Quantity: mean fluorescence intensity
Strand: GGTTGGTGTGGTTGG
2'F-ANA at 3 4 5 7 13 14: 51.9 a.u.
2'F-ANA at 2 3 4 5 6 10 13 14 15: 46.9 a.u.
2'F-ANA at 1 3 4 5 7 8 9 10 12 13 14: 49 a.u.
2'F-ANA at 1 3 4 5 6 7 11: 52.1 a.u.
2'F-ANA at 3 4 5 6 7 10 11 13: 47.9 a.u.

Single results of other studies
PhoQ, residues 284 288 289 292 302 303 TVTVVA  fold induction (PhoP, residues 12 14 15 18 19 TQAIL (Escherichia coli, UniProt P23836); Sort-seq, refers to: YFP reporter; E. coli; PhoQ-PhoP variant library, added: 10 µM Mg2+; relative to: high Mg2+ state, higher = stronger signaling): 20.9

Repeated from above (set 1):
GGTGTCGA: -0.195
